Experimental data from different studies.
Lines come from different studies, so protocols differ. Values joined by “and” are separate records of one study, mostly repeats; a detail may differ. Numbers after ± are the reported error.
Sodium- and chloride-dependent glycine transporter 2: Sodium- and chloride-dependent glycine transporter 2 (Homo sapiens, UniProt Q9Y345)
Gria1/Gria2: Glutamate receptor AMPA 1/2 (Gria1/Gria2, Rattus norvegicus, UniProt P19490+P19491)

CC(C)(C)c1ccc(COc2cccc(C(=O)O)c2)cc1
binding stoichiometry (Nuclear receptor subfamily 4 group A member 2 (Homo sapiens, UniProt P43354); isothermal titration calorimetry; concentration not given, 25 °C): 1.06

O=C(NC1CCN(Cc2ccccc2)CC1)c1ccccn1
remaining specific binding (Sodium- and chloride-dependent glycine transporter 2; MS binding competition; 10 µM): 93.5 ± 1.8%

CCCCCCCCCCCCC/C=C/C=O
isoTOP-ABPP competition ratio (DNA polymerase delta subunit 2 (Homo sapiens, UniProt P49005); competitive isoTOP-ABPP, refers to: POLD2 cysteine peptide; Ramos soluble proteome; 100 µM, together with: iodoacetamide probe; relative to: DMSO over compound-treated, higher = stronger cysteine blockade): 0.95

OC[C@H]1c2[nH]cnc2[C@H](O)[C@@H](O)[C@@H]1O
binding stoichiometry (bglA (Thermotoga maritima, UniProt Q08638); ITC; concentration not given, pH 6.8, 25 °C): 0.98 ± 0.06

COC(=O)Cc1cc2c(cc1C(=O)c1ccc(Cl)cc1Cl)OCO2
current amplitude (Gria1/Gria2; glutamate-evoked current, whole-cell patch clamp; HEK-293T; concentration not given, pH 7.4, holding potential -60 mV, together with: 10 mM glutamate): 212 ± 22 pA

CCCCCCCCCCCCCCCC(=O)NCCCC[C@H](NC(=O)[C@H](CCC(=O)O)NC(=O)[C@H](Cc1ccc(O)cc1)NC(=O)[C@H](CCC(=O)O)NC(=O)COCC(=O)NCCCOCCOCCOCCCNC(=O)[C@H](Cc1c[nH]c2ccccc12)NC(=O)[C@H](CCCCN)NC(=O)[C@H](C)NC(=O)[C@H](CCCCNC(=N)N)NC(=O)[C@H](CCC(N)=O)NC(=O)[C@H](Cc1c[nH]cn1)NC(=O)[C@H](CCSC)NC(=O)[C@H](CC(C)C)NC(=O)[C@H](CCC(N)=O)NC(=O)[C@@H](NC(=O)[C@H](CCC(=O)O)NC(=O)C(C)(C)NC(=O)[C@@H](NC(=O)C(C)(C)N)C(C)C)[C@@H](C)CC)C(=O)N[C@@H](CCC(=O)O)C(=O)N[C@@H](Cc1ccc(O)cc1)C(=O)N[C@@H](CCC(=O)O)C(N)=O
cAMP luminescence AUC (Parathyroid hormone/parathyroid hormone-related peptide receptor (PTH1R, Homo sapiens, UniProt Q03431); agonist; Saos-2 with cAMP reporter; 3.16 nM, 30 min, ligand-on phase; higher = more cAMP): 84.3 a.u.

CCCCCCCCCCCCCCCc1cccc(OCC)c1C(=O)Nc1ccc(Cl)c(C(F)(F)F)c1
SPR binding response (Histone acetyltransferase KAT5 (KAT5, Homo sapiens, UniProt Q92993); SPR; 0.21 µM; higher = more binding): 0.139 RU

CCCCCC(O)/C=C/C=O (stereo not shown)
isoTOP-ABPP competition ratio (Multifunctional methyltransferase subunit TRM112-like protein (TRMT112, Homo sapiens, UniProt Q9UI30); competitive isoTOP-ABPP, refers to: HSPC152 cysteine peptide; Ramos soluble proteome; 100 µM, together with: iodoacetamide probe; relative to: DMSO over compound-treated, higher = stronger cysteine blockade): 1.6

CC(=O)c1cnc(NS(=O)(=O)c2ccc(Cl)c(Cl)c2)nc1
oxidized product ratio (17-beta-hydroxysteroid dehydrogenase 13 (Homo sapiens, UniProt Q7Z5P4); enzyme activity; human hepatocytes, HSD17B13 siRNA, culture medium; 48 h; relative to: scramble siRNA control): 0.0572 and 0.0527 and 0.0535 and 0.0465

O[C@H]1[C@H](O)[C@@H](Cl)C=C[C@@H]1O
reactivation rate (Lysosomal acid glucosylceramidase (GBA1, Homo sapiens, UniProt P04062); covalent inhibitor; concentration not given, pH 5.2, 25 °C): 0.00021 ± 1e-05 s⁻¹

CC(C)Oc1cc(Cl)ccc1CNc1cc(-c2ccccc2)nc2ncnn12
cAMP luminescence (G-protein coupled receptor 3 (GPR3, Homo sapiens, UniProt P46089, L128A); cAMP level, cAMP GloSensor; 3 µM; higher = more cAMP): 1380 a.u. and 1150 a.u. and 1600 a.u. and 1760 a.u.

O=C1c2sc(-c3ccc(N4CCC(F)C4)nc3F)nc2CCN1c1cccnc1 (stereo not shown)
specific binding (TAR DNA-binding protein 43, aggregated (TARDBP, Homo sapiens, UniProt Q13148); radioligand binding; human, FTLD-TDP type B extract; together with: radioligand 26.56 nM): 3.49 nM and 2.61 nM

C=CC(=O)N1CCCC(n2c(=O)c3ncccc3n(Cc3ccc(Oc4ccccc4)cc3)c2=O)C1 (stereo not shown)
remaining binding (Calcium/calmodulin-dependent protein kinase type 1D (CAMK1D, Homo sapiens, UniProt Q8IU85); cell-free assay, competition with immobilised ligand; 1 µM): 96%

Cc1cc(=O)oc2cc(OCCCCCCSC#N)ccc12
selectivity ratio (Carbonic anhydrase 12 (CA12, Homo sapiens, UniProt O43570); stopped-flow CO2 hydration; relative to: Ki CA II over Ki CA XII): > 1580

CSCC[C@H](NC(=O)[C@H](CCC(N)=O)NC(=O)[C@H](CCCCN)NC(=O)[C@H](CCCNC(=N)N)NC(=O)[C@H](Cc1ccc(O)cc1)NC(=O)[C@H](CCCNC(=N)N)NC(=O)[C@H](CO)NC(=O)[C@H](Cc1ccc(O)cc1)NC(=O)[C@H](CO)NC(=O)[C@H](CC(=O)O)NC(=O)[C@@H](NC(=O)[C@@H](N)Cc1ccccc1)[C@@H](C)O)C(=O)N[C@@H](C)C(=O)N[C@H](C(=O)N[C@@H](CCCCN)C(=O)N[C@@H](CCCCN)C(=O)N[C@@H](Cc1ccc(O)cc1)C(=O)N[C@@H](CC(C)C)C(=O)N[C@@H](C)C(=O)N[C@@H](C)C(=O)N[C@H](C(=O)N[C@@H](CC(C)C)C(=O)NCC(=O)N[C@@H](CCCCN)C(=O)N[C@@H](CCCNC(=N)N)C(=O)N[C@@H](Cc1ccc(O)cc1)C(=O)N[C@@H](CCCCN)C(=O)N[C@@H](CCC(N)=O)C(=O)N[C@@H](CCCCn1cc(C[C@H](NC(=O)CNC(=O)[C@H](CO)NC(=O)[C@H](CCCNC(=N)N)NC(=O)[C@H](CO)NC(=O)[C@H](CC(C)C)NC(=O)[C@H](CC(C)C)NC(=O)CNC(=O)[C@H](C)NC(=O)[C@H](CC(C)C)NC(=O)[C@H](CCCNC(=N)N)NC(=O)[C@H](Cc2c[nH]cn2)NC(=O)[C@@H](NC(=O)[C@@H](N)C(C)C)[C@@H](C)O)C(=O)N[C@H](C(=O)N[C@H](C(=O)N[C@@H](CCCCN)C(=O)N[C@@H](CC(N)=O)C(=O)N[C@@H](CC(N)=O)C(=O)N[C@@H](Cc2ccccc2)C(=O)N[C@H](C(=O)N2CCC[C@H]2C(=O)N[C@H](C(=O)N[C@@H](CC(N)=O)C(=O)N[C@H](C(=O)NCC(=O)N[C@@H](CO)C(=O)N[C@@H](CCCCN)C(=O)N[C@@H](C)C(=O)N[C@@H](Cc2ccccc2)C(N)=O)C(C)C)[C@@H](C)O)C(C)C)C(C)C)C(C)C)nn1)C(=O)N[C@H](C(=O)N[C@@H](CCCCN)C(=O)N[C@@H](CC(N)=O)C(=O)N[C@@H](CCCCN)C(N)=O)C(C)C)C(C)C)C(C)C
A2 (PACAP-responsive receptors, rat; cAMP accumulation, antagonist; rat spinal cord; 15 min, together with: PACAP-38): 174 nM

CC(=O)NCCCC[C@H](NC(=O)CNC(=O)CNC(=O)[C@@H](NC(=O)[C@H](CO)NC(=O)[C@H](CCCCN)NC(=O)[C@H](CCCNC(=N)N)NC(=O)[C@H](C)NC(=O)[C@@H](NC(=O)[C@H](CCC(N)=O)NC(=O)[C@H](CCCCN)NC(=O)[C@@H](NC(=O)[C@@H](N)CCCNC(=N)N)[C@@H](C)O)[C@@H](C)O)[C@@H](C)O)C(=O)N[C@@H](C)C(=O)N1CCC[C@H]1C(=O)N[C@@H](CCCNC(=N)N)C(=O)N[C@@H](CCCCN)C(=O)N[C@@H](CCC(N)=O)C(=O)O
ΔTm (YEATS domain-containing protein 4 (Homo sapiens, UniProt O95619, E109A); differential scanning fluorimetry; together with: 50 µM peptide; relative to: buffer-only reference): 0.19 ± 0.03 °C

COC(=O)C1CNCCC1SCCC=C(c1ccccc1)c1ccccc1 (stereo not shown)
remaining specific binding (Sodium- and chloride-dependent glycine transporter 2; MS binding competition; 10 µM): 81.7 ± 9%

CC(C)[C@@H]1NC(=O)[C@H](Cc2ccccc2)NC(=O)CSC[C@@H](C(N)=O)NC(=O)[C@H](CCC(=O)O)NC(=O)[C@H](CO)NC(=O)[C@H](Cc2c[nH]c3cccc(Cl)c23)NC(=O)[C@H](C2CCCCC2)NC(=O)[C@H](C(C)C)NC(=O)[C@H](Cc2ccc(O)cc2)NC(=O)[C@H](CC(=O)O)NC(=O)[C@H](Cc2c[nH]c3ccccc23)NC(=O)[C@H](Cc2ccc(N)nc2)NC(=O)[C@H](Cc2c[nH]c3ccc(Cl)cc23)NC(=O)[C@H](CCC(=O)O)NC1=O
remaining activity (Interleukin-1 receptor-like 2 (IL1RL2, Homo sapiens, UniProt Q9HB29); reporter gene (SEAP), inhibitor, HEK-Blue IL-36R reporter; HEK-Blue IL-36R cells; 33.33 µM, 6 h, together with: IL-36β 10 ng/mL): 80.5%

COc1cc2ncnc(Nc3ccc(Oc4ccc(C)cc4)cc3)c2cc1OC
activity (SMUG1 (Homo sapiens, UniProt Q53HV7); enzyme activity, activator, fluorescence; 2 µM; relative to: control): 90 ± 20%

Cn1c(=O)n(C2CCC(=O)NC2=O)c2ccc(C3CCN(CC(=O)Nc4cccc(CS(=O)(=O)N5CC[C@H](Nc6cccc(-c7sc(C(=O)O)c(OCC(=O)O)c7Cl)c6)CC5(C)C)c4)CC3)cc21 (stereo partly shown)
remaining protein (Tyrosine-protein phosphatase non-receptor type 2 (Ptpn2, Mus musculus, UniProt Q06180); degrader, Western blot; B16-F10; 0.001 µM): 85% and 86.1%

CCOC(=O)CCCc1cccc2c(-c3ccc(Oc4ccccc4)cc3)ccnc12
kon (Glideosome-associated protein 50 (GAP50, Plasmodium falciparum, UniProt Q8I2X3); surface plasmon resonance): 876 M⁻¹ s⁻¹

N[C@H]1CC[C@H](Nc2nccc(-c3cccnc3Oc3ccc(NC(=O)NC4CC4)c4ccccc34)n2)CC1
log2 LFQ intensity (Cyclin-H (Homo sapiens, UniProt P51946); kinobead competition pulldown, refers to: CCNH; HEK293/HCT116 lysate mixture; 10 µM, 1 h, 4 °C; lower = stronger competition): 22.9 and 22.8 and 22.1 and 22.5

c1coc(CNc2ncnc3nc[nH]c23)c1
remaining fluorescence (Gelsolin, peptide (GSN, Homo sapiens, UniProt P06396); amyloid aggregation, ThT fluorescence; 100 µM, 12 h, 37 °C, inhibitor to peptide 1:1 molar; relative to: untreated): 52%

CC[C@H](C)[C@@H]1NC(=O)[C@H](Cc2ccccc2)NC(=O)[C@H](CCC(=O)O)NC(=O)[C@H](CCCNC(=N)N)NC(=O)CNC(=O)[C@@H](NC(=O)[C@H](CC(C)C)NC(=O)[C@H](CCCNC(=N)N)NC(=O)[C@@H](NC(=O)CNC(=O)[C@H](Cc2ccc(O)cc2)NC(=O)[C@@H]2CCCN2C(=O)[C@H](C)NC(=O)[C@H](C)NC(=O)[C@@H](N)CCCNC(=N)N)C(C)C)CSSC[C@@H]2NC(=O)[C@@H](NC(=O)[C@H](CO)NC(=O)[C@H](CO)NC(=O)[C@H](CO)NC(=O)[C@H](CC(C)C)NC(=O)CNC(=O)[C@H](C)NC(=O)[C@H](CC(C)C)NC(=O)[C@@H](NC(=O)[C@@H](N)CC(=O)O)C(C)C)CSSC[C@H](NC(=O)CNC(=O)[C@H](Cc3c[nH]c4ccccc34)NC(=O)[C@H](CCCCN)NC2=O)C(=O)N[C@@H](CO)C(=O)N[C@@H](CCCCN)C(=O)N[C@@H](CO)C(=O)N[C@@H](CCC(=O)O)C(=O)N[C@@H]([C@@H](C)CC)C(=O)N[C@@H](CO)C(=O)N[C@@H](CO)C(=O)N[C@@H](CC(C)C)C(=O)N[C@H](C(=O)O)CSSC[C@@H](C(=O)NCC(=O)NCC(=O)N[C@@H](CO)C(=O)N[C@@H](CCCNC(=N)N)C(=O)N[C@@H](Cc2c[nH]c3ccccc23)C(=O)O)NC(=O)[C@H]([C@@H](C)O)NC(=O)[C@H](Cc2ccccc2)NC(=O)[C@H]([C@@H](C)CC)NC(=O)[C@H](C(C)C)NC(=O)[C@H](C)NC(=O)[C@H](CCCNC(=N)N)NC1=O
Emax (Relaxin-3 receptor 1 (RXFP3, Homo sapiens, UniProt Q9NSD7, D145A); HEK-293T; relative to: wild type): 25.7 ± 5.31%

O=C(O)Cc1cc2c(cc1C(=O)c1ccc(Cl)cc1Cl)OCO2
deactivation time constant (Gria1/Gria2; whole-cell patch clamp; HEK-293T; concentration not given, together with: glutamate): 10.6 ± 0.7 ms

O=C1C[C@H](c2nc(-c3ccc(F)c4cn[nH]c34)no2)CCCN1c1ccc(F)cc1 (racemic)
fold change (Cannabinoid receptor 2 (CNR2, Homo sapiens, UniProt P34972, F281A); GloSensor cAMP; concentration not given, CB2 mutant; relative to: mutant over wild type): 27.6

O=C(N1CCCC1)n1cc(-c2ccc(-c3ccccc3)cc2)nn1
activity ratio (S-formylglutathione hydrolase (Esd, Mus musculus, UniProt Q9R0P3); enzyme activity, inhibitor, competitive ABPP-SILAC, refers to: Esd; mouse T-cells; concentration not given, 4 h, treated in situ; relative to: DMSO): 1.04

COC(=O)Cc1cc2c(cc1C(=O)c1ccccc1Cl)OCO2
deactivation time constant (Gria1/Gria2; glutamate-evoked current, whole-cell patch clamp; HEK-293T; concentration not given, weighted tau, 1 ms pulse, together with: glutamate): 3.4 ± 0.2 ms

A few entries again:
O[C@H]1[C@H](O)[C@@H](Cl)C=C[C@@H]1O
reactivation rate (Lysosomal acid glucosylceramidase (GBA1, Homo sapiens, UniProt P04062); covalent inhibitor; concentration not given, pH 5.2, 25 °C): 0.00021 ± 1e-05 s⁻¹

CC(C)Oc1cc(Cl)ccc1CNc1cc(-c2ccccc2)nc2ncnn12
cAMP luminescence (G-protein coupled receptor 3 (GPR3, Homo sapiens, UniProt P46089, L128A); cAMP level, cAMP GloSensor; 3 µM; higher = more cAMP): 1380 a.u. and 1150 a.u. and 1600 a.u. and 1760 a.u.
